Measured values collected from several papers.
A part holds a random share of what one study measured.
Sequence of UniProt P35372 (whole entry, looked up): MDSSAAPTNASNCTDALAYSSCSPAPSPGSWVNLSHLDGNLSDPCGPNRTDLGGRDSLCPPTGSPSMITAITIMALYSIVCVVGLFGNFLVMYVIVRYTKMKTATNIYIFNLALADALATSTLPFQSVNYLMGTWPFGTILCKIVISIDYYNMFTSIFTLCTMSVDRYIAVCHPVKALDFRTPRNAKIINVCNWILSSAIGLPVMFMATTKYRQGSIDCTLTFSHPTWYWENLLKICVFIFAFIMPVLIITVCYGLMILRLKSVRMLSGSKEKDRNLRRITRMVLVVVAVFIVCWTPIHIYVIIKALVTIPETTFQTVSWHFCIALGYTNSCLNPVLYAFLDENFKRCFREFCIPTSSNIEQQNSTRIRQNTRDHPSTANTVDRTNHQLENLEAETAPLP

Study 1 — Structure (SMILES): C=CCc1ccc(O)c(-c2ccc(O)c(CC=C)c2)c1; observed: chloride current; method: whole-cell voltage clamp
ANO1 del476-501/R631D: Anoctamin-1 (ANO1, Homo sapiens, UniProt Q5XXA6, del476-501/R631D)
Sequence of UniProt Q5XXA6 (whole entry, unmodified, looked up): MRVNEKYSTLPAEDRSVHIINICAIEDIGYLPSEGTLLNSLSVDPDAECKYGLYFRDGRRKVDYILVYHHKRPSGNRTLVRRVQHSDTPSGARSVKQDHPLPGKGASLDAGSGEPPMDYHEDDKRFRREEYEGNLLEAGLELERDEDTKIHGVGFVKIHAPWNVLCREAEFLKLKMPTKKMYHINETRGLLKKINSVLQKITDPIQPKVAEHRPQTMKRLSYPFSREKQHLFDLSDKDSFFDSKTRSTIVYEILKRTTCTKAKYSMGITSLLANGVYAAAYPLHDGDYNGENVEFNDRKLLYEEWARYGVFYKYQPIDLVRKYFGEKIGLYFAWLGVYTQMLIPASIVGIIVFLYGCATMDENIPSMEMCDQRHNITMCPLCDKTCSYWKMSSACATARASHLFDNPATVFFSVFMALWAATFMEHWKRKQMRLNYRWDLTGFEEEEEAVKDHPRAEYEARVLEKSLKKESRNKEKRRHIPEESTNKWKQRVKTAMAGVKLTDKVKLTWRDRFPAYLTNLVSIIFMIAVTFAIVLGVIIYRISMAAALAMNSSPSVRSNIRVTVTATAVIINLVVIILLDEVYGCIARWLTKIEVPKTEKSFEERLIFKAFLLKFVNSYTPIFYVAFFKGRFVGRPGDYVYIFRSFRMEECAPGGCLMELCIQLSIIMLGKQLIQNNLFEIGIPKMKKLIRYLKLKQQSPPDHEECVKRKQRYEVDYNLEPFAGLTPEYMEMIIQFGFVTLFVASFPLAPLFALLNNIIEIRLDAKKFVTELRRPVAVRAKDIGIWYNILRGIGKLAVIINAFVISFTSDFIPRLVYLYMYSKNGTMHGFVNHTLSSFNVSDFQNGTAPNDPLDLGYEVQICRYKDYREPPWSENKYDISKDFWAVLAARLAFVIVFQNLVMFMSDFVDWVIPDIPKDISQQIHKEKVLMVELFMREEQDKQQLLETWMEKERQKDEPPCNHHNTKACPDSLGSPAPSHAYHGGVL
target | test | conditions | IC50 [µM]
Anoctamin-1 (ANO1, Homo sapiens, UniProt Q5XXA6, del476-501/F627A) | – | membrane voltage -60 mV | 5.69
Anoctamin-1 (ANO1, Homo sapiens, UniProt Q5XXA6, D383A/del476-501) | – | membrane voltage 80 mV | 4.66
Anoctamin-1 (ANO1, Homo sapiens, UniProt Q5XXA6, del476-501/F807I) | inhibitor | F781I mutant at 80 mV | 6.91
ANO1 del476-501/R631D | inhibitor | R605D mutant at -40 mV | 20
ANO1 del476-501/R631D | inhibitor | mutant R605D | 26
Anoctamin-1 (ANO1, Homo sapiens, UniProt Q5XXA6, del476-501/M544A) | – | membrane voltage -40 mV | 3.64
Anoctamin-1 (ANO1, Homo sapiens, UniProt Q5XXA6, del476-501) | inhibitor | 40 mV voltage, with: 300 nM Ca2+ | 3.42
Anoctamin-1 (ANO1, Homo sapiens, UniProt Q5XXA6, del476-501/F623A) | – | membrane voltage -20 mV | 9.52

Study 2 — organism: Sarcocystis neurona; observed: parasite growth; concentration: 10 µM; setting: second screen; baseline: untreated
SMILES | log2 fold change
O=C1c2c(O)ccc(O)c2C(=O)c2c(NCCNCCO)ccc(NCCNCCO)c21 | -0.86
CN1C(=O)CC[C@H]1c1cccnc1 | 0.47
CCC1=C[C@@H]2CN(C1)Cc1c([nH]c3ccccc13)[C@@](C(=O)OC)(c1cc3c(cc1OC)N(C)[C@H]1[C@@](O)(C(=O)OC)[C@H](OC(C)=O)[C@]4(CC)C=CCN5CC[C@]31[C@@H]54)C2.O=C(O)C(O)C(O)C(=O)O.O=C(O)C(O)C(O)C(=O)O | 0.18
COC(=O)C1=C(C)NC(C)=C(C(=O)O[C@@H]2CCCN(Cc3ccccc3)C2)[C@@H]1c1cccc([N+](=O)[O-])c1.Cl (racemic) | -0.13
CCN(CC)CCNC(=O)c1cc(Cl)c(N)cc1OC.Cl | 0.37
CC(C)[N+]1(C)[C@@H]2CC[C@H]1CC(OC(=O)C(CO)c1ccccc1)C2.[Br-] (stereo partly drawn) | 0.31
O=c1ncc(F)c[nH]1 | 0.00923
CC(C)c1ccc2c(c1)c(SC(C)(C)C)c(CC(C)(C)C(=O)O)n2Cc1ccc(Cl)cc1 | 0.00169

Other studies, line by line
SMILES | tested on | test | test system | conditions | endpoint | result
Cc1c(NC(=O)c2cc(C(N)=O)nc3cc(F)ccc23)c(C(F)(F)F)nn1Cc1ccc(C#N)cc1 | OPRM1 (Homo sapiens, UniProt P35372) | ligand displacement | – | 10 µM | inhibition | 6.68%
CC(C)n1cnc(-c2ccc(F)cc2)c1-c1ncc(C(=O)Nc2ccc(N3CCN(C)CC3)cc2)[nH]1 | – | – | human, idiopathic pulmonary fibrosis | 30 mg once daily, trial, treatment-emergent | patients with chest discomfort | 0%
